Results pooled from the literature.
Each numbered part is a random draw from the data of one study; scales do not carry over between parts. Values joined by “and” are separate records of one study, mostly repeats; a detail may differ.

Sample 1 — organism: Sarcocystis neurona; effect on: parasite growth; tested at: 10 µM; time: 96 h; setting: second screen; reference: untreated; measurement: log2 fold change
SMILES = COc1ccccc1OCC(O)CN1CCN(CC(=O)Nc2c(C)cccc2C)CC1 (stereo not shown); value = 0.23
SMILES = CCCCC(=O)N(Cc1ccc(-c2ccccc2-c2nnn[nH]2)cc1)[C@H](C(=O)O)C(C)C; value = 0.59
SMILES = CC(C)C(=O)Nc1ccc([N+](=O)[O-])c(C(F)(F)F)c1; value = 0.47
SMILES = OCCN1C[C@H](O)[C@@H](O)[C@H](O)[C@H]1CO; value = -0.00693
SMILES = CCCCc1nc(Cl)c(CO)n1Cc1ccc(-c2ccccc2-c2nn[nH]n2)cc1; value = 0.23
SMILES = COC1=CC(=O)C[C@@H](C)[C@]12Oc1c(Cl)c(OC)cc(OC)c1C2=O; value = 0.56
SMILES = COc1cc2nc(N3CCN(C(=O)C4COc5ccccc5O4)CC3)nc(N)c2cc1OC (stereo not shown); value = -1.92
SMILES = CCN(CC)CC#CCOC(=O)C(O)(c1ccccc1)C1CCCCC1 (stereo not shown); value = 0.32
SMILES = COc1ccccc1OCCNCC(O)COc1cccc2[nH]c3ccccc3c12 (stereo not shown); value = -0.28

Sample 2 — cell line: normal-adjacent epithelial organoid; effect on: cell viability; technique: CellTiter-Glo; host: human; medium: patient-derived organoid; tested at: 1 µM; reference: DMSO; measurement: viability
SMILES = CCc1ccccc1C(=O)Nc1n[nH]c2c(C)c(F)c(C3C(C#N)=C(C)N(C)C(C)=C3C#N)cc12; value = 84.8%
SMILES = CC(=O)c1c(NS(C)(=O)=O)c2cc(-c3ccc(Cl)cc3)c(-c3ccc(Cl)cc3Cl)nc2n(C)c1=O; value = 109% and 132%
SMILES = O=C(N1CCS(=O)(=O)CC1)N1C[C@H](c2ccc(OC(F)(F)F)cc2)C[C@H](c2nc(C3CC3)no2)C1; value = 110% and 109%
SMILES = c1ccc(N2CCN(Cc3nc4ccccc4[nH]3)CC2)nc1; value = 84.3% and 96%
SMILES = O=C1NC(c2ccccn2)Sc2ccccc21 (stereo not shown); value = 92.8% and 107%
SMILES = O=C(NCCN1CCOCC1)c1ccc2c(c1)C(=O)c1ccc(Nc3ccc(F)c(NC(=O)c4ccccc4)c3)cc1CC2; value = 94.6%
SMILES = Cn1nc(C(=O)NCc2ccc(C(=O)O)cc2)cc1-c1ccc2[nH]ccc2c1; value = 81%
SMILES = Cc1c(N2CCNCC2)nc2ccc(Br)cc2c1C(=O)NC[C@H](CCC(=O)O)c1ccccc1Cl; value = 127%
SMILES = CC(=O)Nc1c(F)cc(C(=O)N[C@H]2CC[C@H](O)CC2)cc1O[C@@H](C)c1ccccc1; value = 100%
SMILES = CCS(=O)(=O)c1cc2cc(C[C@](O)(CC(C)(C)c3ccc(F)cc3C(N)=O)C(F)(F)F)[nH]c2cn1; value = 113%
SMILES = Cn1c(-c2csc(C3CCN(Cc4nc5ncccc5[nH]4)CC3)n2)nc2ccccc21; value = 98.5%
SMILES = CC(=O)C1=C(C)N(c2cccc(C(F)(F)F)c2)C(=O)N[C@@H]1c1ccc(C#N)nc1; value = 103% and 82.9%
SMILES = C[C@@H]1CN(c2cc(-c3nn(C)c4ccc(OC5(C)CC5)cc34)ncn2)C[C@H](C)O1; value = 73.9%

Sample 3 — medium: plasma; measurement: geometric mean concentration
SMILES: COc1ccc(-c2c(Nc3ccccn3)[nH]c3c(C4=CCCCC4)c(-c4ccccc4)nn3c2=O)cc1
assay = refers to: S-adenosylmethionine; system = human patients; setting = 100 mg once daily, 6 h; value = 16.5 ng/mL
assay = LC-MS/MS, refers to: S-adenosylmethionine; setting = oral, 200 mg twice daily, 2 h, cycle 1 day 1; value = 10.1 ng/mL
assay = refers to: methionine; system = human patients; setting = 400 mg once daily, 8 h; value = 79500 ng/mL
assay = refers to: S-adenosylmethionine; system = human patients; setting = 100 mg once daily, 8 h; value = 20.3 ng/mL
assay = LC-MS/MS, refers to: S-adenosylmethionine; setting = oral, 50 mg once daily, 2 h, cycle 1 day 1; value = 22 ng/mL
assay = refers to: methionine; system = human patients; setting = 200 mg once daily, 0 h; value = 107000 ng/mL
assay = refers to: methionine; system = human patients; setting = 100 mg once daily, 8 h; value = 81500 ng/mL

Single results of other studies — cell line: A-375; tested at: 100 µM; time: 60 h
Compound = CCOC(=O)[C@H](CCc1ccccc1)N[C@@H](C)C(=O)N1Cc2ccccc2C[C@H]1C(=O)O; viability = 94.3%
Compound = COCCOC(=O)C1=C(C)NC(C)=C(C(=O)OC/C=C/c2ccccc2)C1c1cccc([N+](=O)[O-])c1 (stereo not shown); viability = 12.7%

For quick reference, copied from above (sample 2):
SMILES = c1ccc(N2CCN(Cc3nc4ccccc4[nH]3)CC2)nc1; value = 84.3% and 96%
SMILES = O=C(NCCN1CCOCC1)c1ccc2c(c1)C(=O)c1ccc(Nc3ccc(F)c(NC(=O)c4ccccc4)c3)cc1CC2; value = 94.6%
SMILES = CC(=O)c1c(NS(C)(=O)=O)c2cc(-c3ccc(Cl)cc3)c(-c3ccc(Cl)cc3Cl)nc2n(C)c1=O; value = 109% and 132%
SMILES = CCS(=O)(=O)c1cc2cc(C[C@](O)(CC(C)(C)c3ccc(F)cc3C(N)=O)C(F)(F)F)[nH]c2cn1; value = 113%
SMILES = O=C1NC(c2ccccn2)Sc2ccccc21 (stereo not shown); value = 92.8% and 107%
